Experimental data gathered from unrelated publications.
A part holds a random share of what one study measured.

Set 1
Target: Ras GTPase-activating protein-binding protein 1, C-terminal RGG region (G3BP1, Homo sapiens, UniProt Q13283)
UniProt Q13283, sequence (whole entry, looked up): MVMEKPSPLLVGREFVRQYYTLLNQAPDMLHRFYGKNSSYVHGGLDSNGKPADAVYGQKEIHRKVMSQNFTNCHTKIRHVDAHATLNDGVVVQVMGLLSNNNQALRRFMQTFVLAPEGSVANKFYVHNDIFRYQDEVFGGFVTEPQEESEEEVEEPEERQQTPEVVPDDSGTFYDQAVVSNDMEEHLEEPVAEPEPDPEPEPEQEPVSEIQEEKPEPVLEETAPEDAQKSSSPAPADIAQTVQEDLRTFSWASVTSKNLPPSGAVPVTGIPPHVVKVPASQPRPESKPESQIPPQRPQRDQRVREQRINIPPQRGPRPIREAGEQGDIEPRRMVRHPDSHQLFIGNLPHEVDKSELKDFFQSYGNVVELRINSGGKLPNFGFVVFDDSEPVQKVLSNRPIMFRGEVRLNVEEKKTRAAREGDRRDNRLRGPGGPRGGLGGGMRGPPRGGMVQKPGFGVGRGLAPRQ
Method: RNA Bind-n-Seq
Form: RNA
Medium: in vitro
Tested at: 1 µM
Notes: whole 134-nt RNA, ends assumed
Together with: 150 mM KCl
Relative to: input library
Direction: higher = stronger binding
Oligonucleotide | log2 enrichment
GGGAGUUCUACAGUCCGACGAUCCAAGUCCUGUGCUACACAUCGUAUGUACCGAAUCGGAGGAAAAAAAGGAAAAAGGAAAGUAUUAUGUUACGCCGUUCGGAUCUGCACUUCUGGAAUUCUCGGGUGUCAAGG | -2.04
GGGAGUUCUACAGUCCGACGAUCUCAAGUCCUGUGCUACACAUCGUAUGUACCGAAUCGGGCCGGGGCCGGGGCCGGAAAGUAUUAUGUUACGCCGUUCGGAUCUGCACUUCCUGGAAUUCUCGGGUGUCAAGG | -2.46
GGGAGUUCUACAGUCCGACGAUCUGAUCAGCAAAGCCAAGAUGAGCCUUUGAGAAGCAGAAAAGUGUUUGUGGGGCGCUGUACAGAGGACAUGACUGAGGAUGAGCUGCGGGAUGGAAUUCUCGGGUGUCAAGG | -0.512
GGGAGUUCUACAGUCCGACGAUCGUCCUGUGCUACACAUCGUAUGUACCGAAUCAAAUUUUUAAAUUUUUAAAUUUUUAAAAAAGUAUUAUGUUACGCCGUUCGGAUCUGCACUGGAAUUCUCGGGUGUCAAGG | -2.32
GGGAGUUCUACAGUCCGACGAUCCUCAAGUCCUGUGCUACACAUCGUAUGUACCGAAUCGGUUGGGUUGGGUUGGGAAAGUAUUAUGUUACGCCGUUCGGAUCUGCACUUCCAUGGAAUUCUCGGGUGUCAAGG | 0.422
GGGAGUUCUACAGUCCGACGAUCUGUGCUACACAUCGUAUGUACCGAAUCGGCCCCCCCGGGGCCCCCCCGGGGCCCCCCCGGGGAAAGUAUUAUGUUACGCCGUUCGGAUCUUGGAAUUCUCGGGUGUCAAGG | -2.68
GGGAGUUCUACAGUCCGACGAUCUGUGCUACACAUCGUAUGUACCGAAUCGGGGCCCCCCCGGGCCCCCCCGGGCCCCCCCGGGGAAAGUAUUAUGUUACGCCGUUCGGAUCUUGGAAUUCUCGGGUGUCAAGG | -2.67
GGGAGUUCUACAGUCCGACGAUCUCAAGUCCUGUGCUACACAUCGUAUGUACCGAAUCGGUUUUUGGAAAGGUUUGGAAAGUAUUAUGUUACGCCGUUCGGAUCUGCACUUCCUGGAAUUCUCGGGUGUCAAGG | -1.3
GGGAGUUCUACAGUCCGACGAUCAAGUCCUGUGCUACACAUCGUAUGUACCGAAUCGGGGAGGGGAAAAAGGGGAGGGGAAAGUAUUAUGUUACGCCGUUCGGAUCUGCACUUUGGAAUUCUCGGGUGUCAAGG | 2.53
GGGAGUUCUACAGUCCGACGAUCCCUCAAGUCCUGUGCUACACAUCGUAUGUACCGAAUCGGAGGUGGAAAAAGGAAAGUAUUAUGUUACGCCGUUCGGAUCUGCACUUCCAGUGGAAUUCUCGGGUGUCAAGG | -0.819
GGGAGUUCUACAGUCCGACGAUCAGUCCUGUGCUACACAUCGUAUGUACCGAAUCGGGAAAAAAAGGGAGGGUUUUUGGGAAAGUAUUAUGUUACGCCGUUCGGAUCUGCACUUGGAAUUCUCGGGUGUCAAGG | 0.833
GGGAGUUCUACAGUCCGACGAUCCAAGUCCUGUGCUACACAUCGUAUGUACCGAAUCAAACCCAAAUUUAAAUUUAAAAAAGUAUUAUGUUACGCCGUUCGGAUCUGCACUUCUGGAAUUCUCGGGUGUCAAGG | -0.75
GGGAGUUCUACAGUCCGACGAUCCUGUGCUACACAUCGUAUGUACCGAAUCGGCCCCCCCGGGCCCCCCCGGGGCCCCCCCGGGAAAGUAUUAUGUUACGCCGUUCGGAUCUGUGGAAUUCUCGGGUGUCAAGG | -1.95
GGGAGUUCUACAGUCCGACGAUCUCCUGUGCUACACAUCGUAUGUACCGAAUCGGGAAAGGGAAAAAAAGGGUUUUUUUGGGAAAGUAUUAUGUUACGCCGUUCGGAUCUGCAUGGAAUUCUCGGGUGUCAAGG | -0.734

Set 2
Target: Prothrombin, mature alpha-thrombin (F2, Homo sapiens, UniProt P00734)
Method: aptamer microarray, sandwich
Form: DNA with 2'F-ANA
Medium: in vitro
Tested at: 200 nM
Notes: whole 15-mer aptamer, many near background
Together with: Cy3 exosite-II aptamer, 400 nM
Direction: higher = stronger binding
Oligonucleotide: GGTTGGTGTGGTTGG
Modification | mean fluorescence intensity [a.u.]
2'F-ANA at 2 4 5 7 8 11 14 | 61
2'F-ANA at 1 2 4 7 8 10 11 12 14 | 46.4
2'F-ANA at 2 6 7 8 10 13 | 119
2'F-ANA at 3 5 7 8 10 11 12 13 15 | 66.3
2'F-ANA at 2 3 4 5 6 8 9 15 | 90.8
2'F-ANA at 1 9 10 12 13 | 62.9
2'F-ANA at 1 3 4 5 6 8 11 15 | 87.8
2'F-ANA at 1 2 3 4 6 7 9 10 11 12 13 | 67.1
2'F-ANA at 2 6 7 8 10 11 14 | 128
2'F-ANA at 2 5 9 12 14 15 | 47.7
2'F-ANA at 1 3 4 5 9 10 11 14 15 | 103
2'F-ANA at 1 3 6 7 8 9 10 11 13 15 | 79.5
2'F-ANA at 2 4 8 10 11 13 15 | 67.5
2'F-ANA at 2 3 7 8 10 11 13 14 15 | 298
2'F-ANA at 1 2 4 6 10 11 12 | 54.6
2'F-ANA at 3 4 8 9 13 14 15 | 270
2'F-ANA at 2 5 9 10 11 13 14 | 48.3
2'F-ANA at 2 4 8 11 12 13 14 | 130

Set 3
Target: RNA binding protein fox-1 homolog 2, RRM domain, GST-SBP tag (RBFOX2, Homo sapiens, UniProt O43251-10, residues 100-194)
Method: RNA Bind-n-Seq
Form: RNA
Medium: in vitro
Tested at: 365 nM
Notes: natural RNA segment, single round, ends assumed
Relative to: no-protein control
Direction: higher = stronger binding
Target sequence (chain): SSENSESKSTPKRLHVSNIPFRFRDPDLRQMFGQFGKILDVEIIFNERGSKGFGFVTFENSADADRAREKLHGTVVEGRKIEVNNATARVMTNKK
Oligonucleotide | RBNS enrichment (R)
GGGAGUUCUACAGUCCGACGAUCUCCCCAACCUCUGCCAGGGCAAUCUCUAACUUCAAUCCCGCCUUCGACAGUGAAAAAGCUCUACUUCUACGCUGACCCAGGGAGGAAACACUAGGACCCUGUUGUAUCCUUGGAAUUCUCGGGUGCCAA | 0.3
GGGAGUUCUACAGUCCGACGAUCUGGAGGAUCGCUUGAGCCAAUGAGUUGGAGGCUGCAGUGAGCUAUAAUCACGCCACUGCACUCCAGCCUGGGCUGCAGGGUGAGGUCCUGUCUCUGGAAAAAAAAAAAAAUGGAAUUCUCGGGUGCCAA | 0.366
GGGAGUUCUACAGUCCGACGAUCAAAAUGAUGCCCACAGUCUUGGGAAAAAUACCUGCUGGGAAGGAUGGCAUCUUUUCUGCGCGGUGGGGCUCCCGGAGAACUGGGCAUGCGCAUUGUGCCGUGGGGCUUAGUGGAAUUCUCGGGUGCCAA | 0.425
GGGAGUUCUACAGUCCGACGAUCUCUUAAAAACGUUUUGGAAAGCACUUCAGAUUUUACUGUUUACCAUGAGCCAUGGGUUUUUGUUUUUUCUAAAUUGUCGGGUUGUGUGGGUUUUGGUUACUCGUUUUUGUUGGAAUUCUCGGGUGCCAA | 0.993
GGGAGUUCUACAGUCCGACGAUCCUCAUGUGGCUGGAAGAUCCUGCGGGUGGGGCUUGGGGCUCACACACCUGUAGCACUUACUGGUAGGACCAAGCAUCUUGGGGGGGUGGCCGCUGAGUGGCAGGGGACAGUGGAAUUCUCGGGUGCCAA | 0.446
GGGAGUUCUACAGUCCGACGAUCUUAAAUGGCAUGUGGCCCUUCCUUGUUUCAGUGACUUAGAAAAGUAAAAGCCAUUUAAAAAAGUUAGCAAGAUUUUUUAUCGACUUCCCAACUGGGCUUCCAGCCUUGUUUGGAAUUCUCGGGUGCCAA | 0.535
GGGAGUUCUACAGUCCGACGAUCGCGCUCAACCGAAUUGCUGCUCAGGAGGUCCCCAUUGAGAUCAAGCCAGUAAACCCAUCCCCCCUGAGCCAGCUGCAGAGAAUGGAGCCCAAACAGAUGUUCUGGGUGCGUGGAAUUCUCGGGUGCCAA | 0.65
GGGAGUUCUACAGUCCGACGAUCCUGCCCUCUCUGAGCCUCAGUGUUUGGAGGGCCCCAAAGAAUUCCCGUCUUGUGGGGGAGUUUUCUUGCCUAAGAUUUAAUGCAGUUCUCUCUACCCAGUGGGCGCUGCUUGGAAUUCUCGGGUGCCAA | 0.226
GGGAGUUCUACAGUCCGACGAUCGUUCGUACUUGGUGACAAAUUGAGACUGCUGCUGGAUUCAGAUUGACAAGAUUUUCUUGGAUUUUUUUUUUAUACGAAAAUCAAAAUUUCAAUCAGUCUCGUGCUCUGUCUGGAAUUCUCGGGUGCCAA | 0.557
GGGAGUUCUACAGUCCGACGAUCUCUCUUUCUCCCCUUGUUUACCCUCCAUUCCCACUCUGAUUUAGACUUCUUGAUUGUCGAUCUCUGUCACAUCCGAUGAUUGUUUUGGUUUCUAUUCCCUUUCUAACUGCUGGAAUUCUCGGGUGCCAA | 0.873
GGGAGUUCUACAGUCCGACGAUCUAAAAAAAUUACACUGACUACUGGUGGCUUAGUACUUUAUGUUGUCUCUCACCUAAAUAGUUCCACUUUCUGCAUUAGGAGAAAACUGCUCCCCUCCCCAAGUAUUUUAGUGGAAUUCUCGGGUGCCAA | 0.65
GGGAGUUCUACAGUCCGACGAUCUUUAAGUCCGUUUAGAGAGCAAACCAUAUUGUGCCUCUUCAUCUUGACCCAGGCUCUUAUAGAUAGGUCCUAAACAUUGCUGUUCACUAGAUUAUCUUAACAAAUAAUACUGGAAUUCUCGGGUGCCAA | 0.334

Set 4
Target: Sal-like protein 4, full length isoform B (SALL4, Homo sapiens, UniProt Q9UJQ4-2, residues 1-616)
Method: universal PBM
Form: double-stranded DNA, one strand shown
Medium: in vitro
Tested at: not given
Notes: 8-mer, flanks averaged, mean of replicates
Direction: higher = stronger binding
Oligonucleotide | E-score
ACGATAAG | 0.111
GTCCTTTA | -0.0304
CTCCCCAG | -0.106
GACGCCCA | -0.164
CAAGAGAC | -0.148
CCTACTAC | -0.09
GACAAACA | -0.00912
GATCCCAA | -0.117
GTGAAAAA | 0.249
ACGATTAA | 0.169
CCACCCGC | -0.25
AGCGATGG | -0.284
CATCCAGG | -0.0873
GAATGTAA | 0.235
AATCCAAC | 0.0277
GGCGGGCA | -0.203
ACGCACCA | -0.116
AAGCGTCT | -0.0716
ACGGCAGG | -0.375
ACCTACCC | -0.345
TAGGTTGA | -0.0443

Set 5
Target: Histone acetyltransferase KAT6A, winged helix 2, GST fusion (KAT6A, Homo sapiens, UniProt Q92794, residues 85-181)
Method: protein binding microarray
Form: double-stranded DNA, one strand shown
Medium: in vitro
Tested at: not given
Notes: 8-mer, flanks averaged, mean of 2 arrays, mostly near background
Relative to: not given
Direction: higher = stronger binding
Residues (chain): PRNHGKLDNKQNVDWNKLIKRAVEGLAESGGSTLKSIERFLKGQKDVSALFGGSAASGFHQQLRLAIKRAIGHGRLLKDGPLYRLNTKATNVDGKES
Oligonucleotide | E-score
TAGCCCGA | 0.105
AGGCTATG | -0.134
TCCGTTAA | 0.0234
AATATGGG | 0.0377
CACTTAAA | -0.0453
GAACCTCC | 0.138
AGCCTAGA | -0.155
GCGCACCC | 0.322
CTCCCCAG | -0.207
GCTGGGAA | 0.146
GTGCCAAA | 0.131
GACGACCA | -0.2
CTCTATTC | 0.0285
CAGTTCAG | -0.134
CTACCCAC | -0.0342
TAATGGTA | 0.0509

A few entries again (set 5):
Oligonucleotide | E-score
GCGCACCC | 0.322
CTCCCCAG | -0.207
GCTGGGAA | 0.146
GTGCCAAA | 0.131
GACGACCA | -0.2
CTCTATTC | 0.0285
CAGTTCAG | -0.134
CTACCCAC | -0.0342
